Results collected from several papers.
Each line is one published result; not all experiments were run side by side.
PIK3CD with p85 alpha: Phosphatidylinositol 4,5-bisphosphate 3-kinase catalytic subunit delta isoform, with p85 alpha (PIK3CD, Homo sapiens, UniProt O00329)
PIK3CD: Phosphatidylinositol 4,5-bisphosphate 3-kinase catalytic subunit delta isoform (PIK3CD, Homo sapiens, UniProt O00329)

COc1cc(F)ccc1-c1ncnc(Nc2cccc(C[S@](C)(=N)=O)c2)n1  remaining activity (PIK3CD with p85 alpha; kinase activity; 10 µM, with: ATP 10 µM): 100%
Cc1nc(NC(=O)N2CCC[C@H]2C(N)=O)sc1-c1ccnc(C(C)(C)C(F)(F)F)c1  remaining binding (PIK3CD; KINOMEscan; 10 µM): 0.15%
COc1cc(Cl)c(C(=O)N[C@@H](CN[C@H]2CC[C@@H](N)CC2)Cc2ccc(C#N)cc2)cc1-c1ccc(CN[C@H](C)c2ccc(C)cc2)o1  remaining activity (PIK3CD with p85 alpha; enzyme activity, KinaseProfiler panel; 1 µM): 96%
O=C(CSc1nc2nccnc2c(=O)n1CCc1ccccc1)Nc1nccs1  inhibition (PIK3CD with p85 alpha; kinase activity, inhibitor; 10 µM, with: PIK3R1 complex): -3%
C=CC(=O)N1CCC(COCC(=O)N2CCN(c3nc(-c4cnc(N)nc4C(F)F)nc(N4CCOC[C@@H]4C)n3)CC2)CC1  remaining binding (PIK3CD; KINOMEscan; 1 µM): 0.75%
COc1cc(-c2cncc3c2CN(C)Cc2cc(N4CCNCC4)ccc2-3)cc(OC)c1OC  remaining activity (PIK3CD with p85 alpha; kinase activity; 1 µM, p110d/p85a)(h human, with: ATP 10 µM; reference: DMSO): 101%
Cc1ccc(NC(=O)c2ccc(C)c(C(F)(F)F)c2)cc1C#Cc1nn(C2CCC(O)CC2)c2ncnc(N)c12 (centres unmarked)  remaining activity (PIK3CD with p85 alpha; enzyme activity, inhibitor; 10 µM, p110d/p85a)(h human, with: ATP 10 µM): 74%
O=C(NC1CCC1)c1ccc2nc(-c3cccc(NS(=O)(=O)NCCN4CCCCC4)c3)cn2c1  remaining activity (PIK3CD; enzyme activity; 10 µM): 100%
C=CC(=O)Nc1cc(Nc2nccc(Nc3cc(Cl)c(F)cc3C(C)(C)O)n2)c(OC)cc1N1CC[C@@H](N(C)C)C1  inhibition (PIK3CD with p85 alpha; kinase activity, inhibitor; 1 µM): 4%
CS(=O)(=O)Nc1cccc(-c2csc(NC(=O)CSc3nc4nccnc4c(=O)n3CCc3ccccc3)n2)c1  inhibition (PIK3CD with p85 alpha; kinase activity, inhibitor; 10 µM, with: PIK3R1 complex): 7%
CN1CC(Oc2cnc(C#N)cc2-c2ccn3nc(NC(=O)C4CC4)cc3c2)C1  inhibition (PIK3CD with p85 alpha; inhibitor, KinaseProfiler panel; 1 µM): -2%
